Experimental data collected from several papers.
Each numbered part is a random draw from the data of one study; scales do not carry over between parts.

Series 1 — method: protein-binding microarray; molecule type: double-stranded DNA, one strand shown; sample: in vitro; concentration: 0.8 µM; setting: whole 60-bp probe, no competitor; direction: higher = stronger binding; shared flanks, not repeated: … GTCTTGATTCGCTTGACGCTGCTG
Target: Centromere-binding protein 1, full length, N-terminal tag (CBF1, Saccharomyces cerevisiae, UniProt P17106, residues 1-351)
UniProt P17106, sequence (whole entry, looked up): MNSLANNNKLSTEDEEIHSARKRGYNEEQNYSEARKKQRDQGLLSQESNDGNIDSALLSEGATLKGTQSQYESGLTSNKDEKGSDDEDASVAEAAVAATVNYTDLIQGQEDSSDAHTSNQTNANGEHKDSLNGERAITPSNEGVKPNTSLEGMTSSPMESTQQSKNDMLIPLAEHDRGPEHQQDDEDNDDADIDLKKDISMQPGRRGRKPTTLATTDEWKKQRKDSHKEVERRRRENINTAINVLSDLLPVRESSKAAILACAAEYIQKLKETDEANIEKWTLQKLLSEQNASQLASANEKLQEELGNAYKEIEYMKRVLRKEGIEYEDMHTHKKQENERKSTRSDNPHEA
Sequence | fluorescence intensity
GAAATGCGGTCTATTCATGTGCATTCGCATATATAG | 532 a.u.
GAATTTGTTTCCGCCCATGTGCTCCCTCTACCGTAG | 778 a.u.
CTATTTTGTGGTCGGATCGTGCTTTTGCCACCCTTC | 526 a.u.
GAAAATGTTTACACGAACGTGCCTGATCGACATTAG | 609 a.u.
GAAAGCAGAAATATGGACGTGATTCTGAGTTTATAG | 569 a.u.
CTAGCTGTTATACTATTCGTGATCCAGGGCAAATTC | 573 a.u.
CTACAAGTAAAATGCAACGTGCAAATGCTGATCTTC | 692 a.u.
CTATTGTCCGTAGTCATCGTGACTGGTTGACGTTTC | 803 a.u.

Series 2 — cell line: HEK-293T/ACE2; concentration: concentration not given; time: 16 (unit not given); reference: vehicle
Structure (SMILES) | viability [%]
C#C[C@]1(O)CC[C@H]2[C@@H]3CCC4=Cc5oncc5C[C@]4(C)[C@H]3CC[C@@]21C | 104
Oc1c(Cl)cc(Cl)c2cccnc12 | 88.1
CC(C)(C)NC(=O)[C@H]1CC[C@H]2[C@@H]3CC[C@H]4NC(=O)C=C[C@]4(C)[C@H]3CC[C@]12C | 103
c1ccc(CN(CC2=NCCN2)c2ccccc2)cc1 | 102

Series 3 — method: RNAcompete; molecule type: RNA; sample: in vitro; concentration: 20 nM; setting: 7-mer, probes averaged, single round; reference: mean of 7-mers; direction: higher = stronger binding
Target: PABPC1L2, full length, GST fusion (mouse, UniProt A0ABA7IW68)
Target sequence (chain): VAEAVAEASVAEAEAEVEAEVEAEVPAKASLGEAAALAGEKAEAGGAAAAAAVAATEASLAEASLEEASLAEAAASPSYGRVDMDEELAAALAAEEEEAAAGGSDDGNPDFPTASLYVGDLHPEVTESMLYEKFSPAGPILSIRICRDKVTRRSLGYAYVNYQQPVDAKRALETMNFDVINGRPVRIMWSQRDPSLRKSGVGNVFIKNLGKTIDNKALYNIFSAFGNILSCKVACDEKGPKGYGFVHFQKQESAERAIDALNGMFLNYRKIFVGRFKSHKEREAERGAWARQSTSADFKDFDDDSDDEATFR
Sequence | 7-mer Z-score
CACCGGC | -0.313
UAGUACC | -0.155
CACGCGG | -0.0409
GCUCGGC | -0.231
ACUGACA | 0.037
UGGACUG | -0.0536
UACCUCC | -0.407
CAAUACU | -0.137

Series 4 — mode: inhibitor; concentration: 20 µM
Target: Replicase polyprotein 1ab, nsp13 helicase (rep, Severe acute respiratory syndrome coronavirus 2, UniProt P0DTD1)
SMILES | inhibition [%]
NC(Cc1ccc(Cl)cc1)C(=O)O (racemic) | 1.86
C[C@]1(c2nc3c(C(N)=O)cccc3[nH]2)CCCN1 | 3.49
CCCCCCCCCCCCCCCCCC(=O)OCC(O)CO (stereo not drawn) | 0.97
COc1ccc(CCN(C)CCCN2CCc3cc(OC)c(OC)cc3CC2=O)cc1OC | 10
O=C(NO)C1(CS(=O)(=O)c2ccc(Oc3ccc(Cl)cc3)cc2)CCOCC1 | 0.07
CCCCCCCC/C=C/CCCCCCCC(=O)OC[C@H]1O[C@@H](n2ccc(N)nc2=O)C(F)(F)[C@@H]1O | 8.36
c1ccc2c(CCNc3ccc(Nc4ccncc4)cc3)c[nH]c2c1 | 8.78
CS(=O)(=O)Nc1c(O)ccc2c1CCCC2C1=NCCN1 (stereo not drawn) | 5.2
COc1ccc2c(NC(=O)Nc3cccc(C(F)(F)F)n3)ccnc2c1 | 2.62
C1=N/C2=N/c3ccc(OCCN4CCCC4)c(c3)COC/C=C/COCc3cccc(c3)C(=C1)N2 | 17.2
C[C@]12CC[C@@H](O)C[C@@H]1CC[C@@H]1[C@@H]2CC[C@]2(C)C(=O)CC[C@@H]12 | 9.04
O=c1c(O)c(-c2ccc(O)c(O)c2)oc2cc(O)cc(O)c12 | 18.7
C[C@@H]1O[C@@H](O[C@H]2[C@H](Oc3cc(O)c(C(=O)CCc4ccc(O)cc4)c(O)c3)O[C@H](CO)[C@@H](O)[C@@H]2O)[C@H](O)[C@H](O)[C@H]1O | 3.26
Cc1sc(C)c(C(=O)NC2(c3ccc(C(=O)O)cc3)CC2)c1Cc1ccc(C(F)(F)F)cc1 | 6.75
COc1ccc2cc1Oc1ccc(cc1)C[C@H]1c3c(cc4c(c3Oc3cc5c(cc3OC)CCN(C)[C@@H]5C2)OCO4)CCN1C | 19.3
CCOc1ccc(Cc2nccc3cc(OCC)c(OCC)cc23)cc1OCC | -34.6
Cc1cccc(C(=O)O)c1O | 0.96
O=C(O)[C@@H]1C[C@@H](C2CCCCC2)CN1C(=O)CP(=O)(O)CCCCc1ccccc1 | 4.02
c1ccc(-c2ccc(CNc3nc(-c4ccccn4)nnc3-c3ccccc3)cc2)cc1 | -1.44
CC(=O)O[C@H]1C[C@@H]2CC[C@@H]3[C@H](CC[C@@]4(C)[C@H]3C[C@H]([N+]3(C)CCCCC3)[C@@H]4OC(C)=O)[C@@]2(C)C[C@@H]1[N+]1(C)CCCCC1 | 8.91
C[C@@]1(C(=O)N[C@@H](CCC(=O)O)C(=O)O)CCCN1C(=O)CN | 9.5
Clc1ccc(-c2nc3sccn3c2/C=N/OCc2ccc(Cl)c(Cl)c2)cc1 | 1.34
NC(=O)c1nc(F)cnc1O | -2.68
Cc1cccc(C)c1NC1=NCCCS1 | 1.82
COc1ccc2c(c1)[C@]13CCCC[C@@H]1[C@H](C2)N(C)CC3 | 0.69

Series 5 — observed: enzyme activity; mode: inhibitor; concentration: 20 µM; setting: with DTT
Target: Replicase polyprotein 1ab, main protease (rep, Severe acute respiratory syndrome coronavirus 2, UniProt P0DTD1)
Structure (SMILES) | inhibition [%]
C[C@@H]1O[C@@H](Oc2c(-c3cc(O)c(O)c(O)c3)oc3cc(O)cc(O)c3c2=O)[C@@H](O)[C@H](O)[C@H]1O | -10.3
CN(C)CCNc1nc2cc(O)ccc2c2c1C(=O)c1ccccc1-2 | 42.2
NC(Cc1cc(O)c(O)cc1O)C(=O)O (stereo not drawn) | 70
C=C1c2cccc(O)c2C(=O)C2C(=O)[C@]3(O)C(=O)C(C(N)=O)C(=O)[C@@H](N(C)C)[C@@H]3[C@@H](O)[C@H]12 (stereo partly drawn) | 10.3

Other studies, line by line — method: protein-binding microarray; molecule type: hairpin DNA; sample: in vitro; concentration: not given; reference: not given; direction: higher = stronger binding
Target: Cyclic AMP-dependent transcription factor ATF-1, full length (ATF1, Homo sapiens, UniProt P18846, residues 1-271)
Setting: whole hairpin DNA, median over replicate spots
Residues used in one study (chain): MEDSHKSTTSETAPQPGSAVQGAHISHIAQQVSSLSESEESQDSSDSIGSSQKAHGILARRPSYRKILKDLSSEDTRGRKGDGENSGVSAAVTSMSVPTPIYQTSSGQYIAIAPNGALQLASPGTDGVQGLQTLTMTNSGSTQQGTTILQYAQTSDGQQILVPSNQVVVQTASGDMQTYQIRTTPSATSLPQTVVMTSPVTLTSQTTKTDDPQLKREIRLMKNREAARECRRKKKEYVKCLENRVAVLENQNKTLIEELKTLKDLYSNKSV
Sequence | median fluorescence [a.u.]
GAGGCCGGCTGACGGCAGCCTCCTGGCTGCCGTCAGCCGGCCTCACACTC | 3860
GAGGCCGGCGGACGTCAGCCTCCTGGCTGACGTCCGCCGGCCTCACACTC (5mC at 9 35) | 4830

Some of these lines once more (series 3):
Sequence | 7-mer Z-score
CACGCGG | -0.0409
ACUGACA | 0.037
CAAUACU | -0.137
UAGUACC | -0.155
